# Measured values gathered from unrelated publications.
SMILES,cell line,test,conditions,how to read,measurement,result
CCN(CC)CC(=O)Nc1cccc(-n2cc(-c3ccc4ccc(-c5cn(-c6cccc(NC(=O)CN(CC)CC)c6)nn5)cc4c3)nn2)c1,RCC4,"PCR angiogenesis array, measured: COL18A1","5 x IC50, 6 h, normoxia",reference: untreated,fold regulation,-1.66
CC(C)(C)c1cc(-c2ccc3cccnc3n2)nc(-c2ccc3cccnc3n2)c1.COc1ccncc1.[Cl-].[Cl-].[Ru+2].c1ccc2cc3nc4c5cccnc5c5ncccc5c4nc3cc2c1,B16-F10,,light 633 nm,reference: dark EC50 over light EC50,phototherapeutic index,24
CC(C)c1ccc(N(C)c2ccc3c(c2)OCC[C@H]3CNc2cnccc2C(=O)O)cc1,COLO-680N,"cell viability, CellTiter-Glo",7 days,,IC50,6.97 nM
CC(C)(C)c1cc(-c2ccc3cc4ccccc4nc3n2)nc(-c2ccc3cc4ccccc4nc3n2)c1.Cc1ccncc1.[Cl-].[Cl-].[Ru+2].c1ccc2cc3nc4c5cccnc5c5ncccc5c4nc3cc2c1,B16-F10,resazurin,"added: light 633 nm, 20 mW, 100 J/cm2",,EC50,13700 nM
Cc1ncsc1-c1ccc(C(C)NC(=O)C2CC(O)CN2C(=O)C(NC(=O)CCCCCCCCCCN2CCCC(Nc3ncc(Cl)c(Nc4ccccc4S(=O)(=O)C(C)C)n3)C2)C(C)(C)C)cc1 (centres unmarked),22Rv1,"RNA-seq, measured: RRP7BP mRNA",concentration not given,reference: DMSO,log2 fold change,-1.2
CNS(=O)(=O)Nc1nccc(Cc2c(C)c3ccc(Oc4ncccc4F)cc3oc2=O)c1F,OVISE,cell viability,7 days,,IC50,> 1000 nM
CN1CCCNC(=O)c2cccc(c2)C(=O)NCCCN(C)CCCNc2cccc3c2C(=O)c2cccc(c2C3=O)NCCC1,SAS,"RNA-Seq, measured: IFRD1 mRNA","1 µM, 6 h",reference: untreated cells,log2 fold change,-1.1
Cn1ncc2cc(-c3cncc(Cl)c3N3CCC4(CCNC4=O)CC3)ccc21,LS174T,"gene expression, microarray, measured: ACTG2 mRNA","concentration not given, 24 h",reference: untreated cells,log2 fold change,1.15

# Some of these lines once more:
SMILES,cell line,test,conditions,how to read,measurement,result
CNS(=O)(=O)Nc1nccc(Cc2c(C)c3ccc(Oc4ncccc4F)cc3oc2=O)c1F,OVISE,cell viability,7 days,,IC50,> 1000 nM
